Results of several laboratories.
Each numbered part is a random draw from the data of one study; scales do not carry over between parts.
Chain of UniProt P10721 (whole entry, unmodified, looked up): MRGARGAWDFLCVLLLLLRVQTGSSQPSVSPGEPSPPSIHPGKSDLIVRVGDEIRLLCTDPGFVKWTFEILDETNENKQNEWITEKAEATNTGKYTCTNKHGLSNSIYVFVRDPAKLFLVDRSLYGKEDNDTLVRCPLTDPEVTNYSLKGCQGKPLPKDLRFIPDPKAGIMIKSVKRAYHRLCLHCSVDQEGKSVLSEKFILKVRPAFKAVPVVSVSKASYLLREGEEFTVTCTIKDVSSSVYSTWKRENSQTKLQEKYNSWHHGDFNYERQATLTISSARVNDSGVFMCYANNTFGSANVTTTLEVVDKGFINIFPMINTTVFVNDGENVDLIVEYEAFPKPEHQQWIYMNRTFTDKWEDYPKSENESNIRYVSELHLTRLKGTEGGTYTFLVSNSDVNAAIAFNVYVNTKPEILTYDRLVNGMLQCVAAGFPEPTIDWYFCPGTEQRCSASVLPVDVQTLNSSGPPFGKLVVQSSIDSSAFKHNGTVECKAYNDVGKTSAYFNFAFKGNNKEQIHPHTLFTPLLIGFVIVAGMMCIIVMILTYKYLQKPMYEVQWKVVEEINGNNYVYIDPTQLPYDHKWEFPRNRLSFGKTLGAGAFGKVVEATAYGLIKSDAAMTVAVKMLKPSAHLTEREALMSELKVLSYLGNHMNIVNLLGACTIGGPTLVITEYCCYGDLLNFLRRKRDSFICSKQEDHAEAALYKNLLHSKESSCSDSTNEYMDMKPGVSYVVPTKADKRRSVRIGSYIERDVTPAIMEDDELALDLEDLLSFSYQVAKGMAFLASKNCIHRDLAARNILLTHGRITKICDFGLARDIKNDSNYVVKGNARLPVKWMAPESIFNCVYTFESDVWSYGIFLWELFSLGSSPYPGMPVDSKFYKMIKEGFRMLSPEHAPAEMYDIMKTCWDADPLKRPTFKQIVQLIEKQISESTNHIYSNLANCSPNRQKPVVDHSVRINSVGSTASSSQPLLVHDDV
Chain of UniProt Q99558 (whole entry, looked up): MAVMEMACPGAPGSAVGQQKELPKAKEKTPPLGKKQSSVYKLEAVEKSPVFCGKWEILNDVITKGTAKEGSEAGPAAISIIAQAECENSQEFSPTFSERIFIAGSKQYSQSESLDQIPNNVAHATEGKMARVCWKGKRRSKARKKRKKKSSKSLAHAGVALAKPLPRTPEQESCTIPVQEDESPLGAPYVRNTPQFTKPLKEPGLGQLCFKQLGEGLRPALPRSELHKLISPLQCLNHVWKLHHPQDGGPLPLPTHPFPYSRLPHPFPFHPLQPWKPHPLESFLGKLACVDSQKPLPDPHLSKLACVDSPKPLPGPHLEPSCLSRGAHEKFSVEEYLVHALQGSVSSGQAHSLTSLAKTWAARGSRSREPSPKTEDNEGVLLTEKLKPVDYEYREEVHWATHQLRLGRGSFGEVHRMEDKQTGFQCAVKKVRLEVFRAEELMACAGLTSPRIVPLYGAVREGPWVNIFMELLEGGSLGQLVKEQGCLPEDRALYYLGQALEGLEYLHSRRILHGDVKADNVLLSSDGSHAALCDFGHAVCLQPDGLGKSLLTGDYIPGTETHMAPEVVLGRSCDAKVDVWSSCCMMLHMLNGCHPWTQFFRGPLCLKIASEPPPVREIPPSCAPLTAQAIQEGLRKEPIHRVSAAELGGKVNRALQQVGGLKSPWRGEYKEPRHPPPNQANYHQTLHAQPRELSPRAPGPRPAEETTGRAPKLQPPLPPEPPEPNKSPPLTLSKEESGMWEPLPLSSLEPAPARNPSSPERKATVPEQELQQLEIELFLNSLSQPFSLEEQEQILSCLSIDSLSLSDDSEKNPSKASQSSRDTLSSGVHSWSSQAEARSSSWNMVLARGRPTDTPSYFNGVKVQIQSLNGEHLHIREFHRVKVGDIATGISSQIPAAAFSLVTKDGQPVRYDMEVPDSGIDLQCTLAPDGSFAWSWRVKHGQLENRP
Chain of UniProt O14733 (whole entry, looked up): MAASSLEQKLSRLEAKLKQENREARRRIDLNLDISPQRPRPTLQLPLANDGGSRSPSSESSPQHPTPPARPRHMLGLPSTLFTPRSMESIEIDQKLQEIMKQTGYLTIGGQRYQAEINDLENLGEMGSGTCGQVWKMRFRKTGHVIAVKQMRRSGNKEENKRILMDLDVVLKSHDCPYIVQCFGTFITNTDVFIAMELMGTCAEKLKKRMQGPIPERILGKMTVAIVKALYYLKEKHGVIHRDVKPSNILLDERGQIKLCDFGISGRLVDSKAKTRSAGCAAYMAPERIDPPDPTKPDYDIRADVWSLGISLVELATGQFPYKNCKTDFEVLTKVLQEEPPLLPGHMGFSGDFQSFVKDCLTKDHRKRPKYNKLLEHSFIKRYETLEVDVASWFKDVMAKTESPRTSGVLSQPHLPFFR
Chain of UniProt P42336 (whole entry, unmodified, looked up): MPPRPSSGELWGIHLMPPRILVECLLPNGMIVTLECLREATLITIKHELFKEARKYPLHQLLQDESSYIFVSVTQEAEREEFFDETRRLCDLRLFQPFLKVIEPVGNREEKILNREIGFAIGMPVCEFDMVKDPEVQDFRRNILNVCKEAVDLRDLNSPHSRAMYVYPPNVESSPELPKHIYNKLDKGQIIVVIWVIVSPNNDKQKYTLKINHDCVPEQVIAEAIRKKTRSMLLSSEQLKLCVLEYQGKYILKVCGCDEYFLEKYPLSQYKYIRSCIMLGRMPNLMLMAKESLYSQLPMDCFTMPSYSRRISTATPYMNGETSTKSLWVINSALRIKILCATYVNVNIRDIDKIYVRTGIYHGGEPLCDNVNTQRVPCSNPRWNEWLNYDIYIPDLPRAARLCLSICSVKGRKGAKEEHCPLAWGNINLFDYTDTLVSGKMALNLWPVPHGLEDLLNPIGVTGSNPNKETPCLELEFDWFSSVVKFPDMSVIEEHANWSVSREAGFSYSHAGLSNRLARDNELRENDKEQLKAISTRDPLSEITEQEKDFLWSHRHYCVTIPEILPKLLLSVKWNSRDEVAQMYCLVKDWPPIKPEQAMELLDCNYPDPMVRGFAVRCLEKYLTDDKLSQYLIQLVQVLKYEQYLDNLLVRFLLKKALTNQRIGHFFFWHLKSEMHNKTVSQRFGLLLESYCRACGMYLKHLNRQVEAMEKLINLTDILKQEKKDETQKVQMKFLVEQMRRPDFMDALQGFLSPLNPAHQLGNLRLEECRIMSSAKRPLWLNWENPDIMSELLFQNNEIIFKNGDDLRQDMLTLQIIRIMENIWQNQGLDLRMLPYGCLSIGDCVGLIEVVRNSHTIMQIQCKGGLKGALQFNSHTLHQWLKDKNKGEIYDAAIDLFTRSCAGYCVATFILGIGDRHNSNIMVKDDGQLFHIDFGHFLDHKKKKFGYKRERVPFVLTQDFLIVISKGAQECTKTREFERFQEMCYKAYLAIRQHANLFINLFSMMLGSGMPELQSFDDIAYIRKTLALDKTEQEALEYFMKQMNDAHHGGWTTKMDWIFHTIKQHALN
Chain of UniProt P04049 (whole entry, looked up): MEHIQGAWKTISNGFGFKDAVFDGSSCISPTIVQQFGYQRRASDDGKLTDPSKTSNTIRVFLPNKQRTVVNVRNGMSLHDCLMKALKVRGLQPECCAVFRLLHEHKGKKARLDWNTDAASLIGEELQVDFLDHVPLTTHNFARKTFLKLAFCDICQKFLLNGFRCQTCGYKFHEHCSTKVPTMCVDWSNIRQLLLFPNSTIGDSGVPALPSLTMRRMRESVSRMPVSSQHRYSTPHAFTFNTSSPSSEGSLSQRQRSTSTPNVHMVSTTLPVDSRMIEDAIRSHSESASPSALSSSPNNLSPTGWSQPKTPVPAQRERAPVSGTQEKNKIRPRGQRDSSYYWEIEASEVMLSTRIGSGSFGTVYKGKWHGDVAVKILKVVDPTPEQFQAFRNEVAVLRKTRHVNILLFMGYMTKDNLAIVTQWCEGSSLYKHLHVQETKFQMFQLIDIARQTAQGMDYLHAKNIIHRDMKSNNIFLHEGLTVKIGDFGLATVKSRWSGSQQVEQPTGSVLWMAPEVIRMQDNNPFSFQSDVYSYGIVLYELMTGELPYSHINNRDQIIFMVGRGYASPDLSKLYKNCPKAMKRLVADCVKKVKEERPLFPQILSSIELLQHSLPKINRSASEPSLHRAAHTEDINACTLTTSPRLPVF

Sample 1
Compound: C[C@@]1(Cc2ccc(C#N)cc2)C(=O)N(c2cc(Cl)cc(Cl)c2)c2ncc(C(=O)NC3(c4nc(C5CCC5)no4)CC3)n21
Effect on: cell-free assay
Technique: competition with immobilised ligand
Tested at: 1 µM
Measurement: remaining binding
target = RAF proto-oncogene serine/threonine-protein kinase (RAF1, Homo sapiens, UniProt P04049); value = 100%
target = Tyrosine-protein kinase ABL1, phosphorylated (ABL1, Homo sapiens, UniProt P00519, Q252H); value = 100%
target = Mitogen-activated protein kinase kinase kinase 14 (MAP3K14, Homo sapiens, UniProt Q99558); value = 100%
target = Phosphatidylinositol 4,5-bisphosphate 3-kinase catalytic subunit alpha isoform (PIK3CA, Homo sapiens, UniProt P42336, H1047Y); value = 100%
target = Tyrosine-protein kinase ABL1, non-phosphorylated (ABL1, Homo sapiens, UniProt P00519, H396P); value = 100%
target = Phosphatidylinositol 4,5-bisphosphate 3-kinase catalytic subunit delta isoform (PIK3CD, Homo sapiens, UniProt O00329); value = 73%
target = Mast/stem cell growth factor receptor Kit (KIT, Homo sapiens, UniProt P10721, L576P); value = 100%
target = Epidermal growth factor receptor (EGFR, Homo sapiens, UniProt P00533, L861Q); value = 100%
target = Tyrosine-protein kinase ABL1, non-phosphorylated (ABL1, Homo sapiens, UniProt P00519); value = 100%
target = Hepatocyte growth factor receptor (MET, Homo sapiens, UniProt P08581); value = 100%
target = Citron Rho-interacting kinase (CIT, Homo sapiens, UniProt O14578); value = 100%
target = Receptor tyrosine-protein kinase erbB-3 (ERBB3, Homo sapiens, UniProt P21860); value = 96%
target = Calcium/calmodulin-dependent protein kinase type II subunit alpha (CAMK2A, Homo sapiens, UniProt Q9UQM7); value = 89%
target = Dual specificity mitogen-activated protein kinase kinase 7 (MAP2K7, Homo sapiens, UniProt O14733); value = 100%
target = Dual specificity tyrosine-phosphorylation-regulated kinase 1A (DYRK1A, Homo sapiens, UniProt Q13627); value = 99%
target = Serine/threonine-protein kinase Nek11 (NEK11, Homo sapiens, UniProt Q8NG66); value = 100%
target = Tyrosine-protein kinase ABL1, phosphorylated (ABL1, Homo sapiens, UniProt P00519, M351T); value = 100%
target = Serine/threonine-protein kinase BRSK1 (BRSK1, Homo sapiens, UniProt Q8TDC3); value = 100%
target = Serine/threonine-protein kinase Nek10 (NEK10, Homo sapiens, UniProt Q6ZWH5); value = 100%
target = Mast/stem cell growth factor receptor Kit (KIT, Homo sapiens, UniProt P10721, A829P); value = 100%
target = Uncharacterized serine/threonine-protein kinase SBK3 (SBK3, Homo sapiens, UniProt P0C264); value = 100%

Sample 2
Cell line: HaCaT
Tested at: 100 µM
Time: 36 h
Measurement: viability
Structure (SMILES) = CC12CC3CC(C)(C1)CC(N)(C3)C2; value = 66.5%
Structure (SMILES) = Nc1cc(N2CCCCC2)nc(N)[n+]1[O-]; value = 83.5%
Structure (SMILES) = CN(C)C/C=C/C(=O)Nc1cc2c(Nc3ccc(F)c(Cl)c3)ncnc2cc1O[C@H]1CCOC1; value = 5.45%
Structure (SMILES) = CCOC(=O)[C@H](CCc1ccccc1)N[C@@H](C)C(=O)N1[C@H](C(=O)O)C[C@@H]2CCC[C@@H]21; value = 99.2%
Structure (SMILES) = COC(=O)C1=C(C)NC(C)=C(C(=O)OCCN(C)Cc2ccccc2)C1c1cccc([N+](=O)[O-])c1 (stereo not drawn); value = 7.92%
Structure (SMILES) = CCN(CC)CCCC(C)Nc1c2ccc(Cl)cc2nc2ccc(OC)cc12 (stereo not drawn); value = 5.2%
Structure (SMILES) = c1ccc(CN(CC2=NCCN2)c2ccccc2)cc1; value = 73.8%
Structure (SMILES) = O[C@H](CNC[C@@H](O)[C@H]1CCc2cc(F)ccc2O1)[C@@H]1CCc2cc(F)ccc2O1; value = 4.85%
Structure (SMILES) = COc1ccc(NS(=O)(=O)c2ccc(N)cc2)nn1; value = 51.6%
Structure (SMILES) = CN(C(=O)CN(CCO)CC(=O)N(C)C(C)(C)Cc1ccccc1)C(C)(C)Cc1ccccc1; value = 5.39%
Structure (SMILES) = O=C(O)c1ccccc1OP(=O)(O)O; value = 79.2%
Structure (SMILES) = Cc1cccc(C)c1NC(=O)C1CCCCN1C (stereo not drawn); value = 91.8%

Sample 3
Compound: COc1cc(C(=O)N2CCC(N3CCN(C)CC3)CC2)ccc1Nc1ncc2c(n1)N(C)c1ccccc1C(=O)N2C
Technique: KINOMEscan
Tested at: 10 µM
Baseline: DMSO control
Direction: lower = stronger binding
Measurement: binding
target = IRAK1; value = 100%
target = MAP3K2; value = 97%
target = PIP5K1C; value = 96%
target = PLK3; value = 51%
target = MST1; value = 100%
target = CDC2L1; value = 84%
target = PRKCQ; value = 100%
target = MYLK; value = 8.7%
target = BTK; value = 100%

Sample 4
Target: Ribosomal protein S6 kinase alpha-1 (RPS6KA1, Homo sapiens, UniProt Q15418)
Chain of UniProt Q15418 (whole entry, looked up): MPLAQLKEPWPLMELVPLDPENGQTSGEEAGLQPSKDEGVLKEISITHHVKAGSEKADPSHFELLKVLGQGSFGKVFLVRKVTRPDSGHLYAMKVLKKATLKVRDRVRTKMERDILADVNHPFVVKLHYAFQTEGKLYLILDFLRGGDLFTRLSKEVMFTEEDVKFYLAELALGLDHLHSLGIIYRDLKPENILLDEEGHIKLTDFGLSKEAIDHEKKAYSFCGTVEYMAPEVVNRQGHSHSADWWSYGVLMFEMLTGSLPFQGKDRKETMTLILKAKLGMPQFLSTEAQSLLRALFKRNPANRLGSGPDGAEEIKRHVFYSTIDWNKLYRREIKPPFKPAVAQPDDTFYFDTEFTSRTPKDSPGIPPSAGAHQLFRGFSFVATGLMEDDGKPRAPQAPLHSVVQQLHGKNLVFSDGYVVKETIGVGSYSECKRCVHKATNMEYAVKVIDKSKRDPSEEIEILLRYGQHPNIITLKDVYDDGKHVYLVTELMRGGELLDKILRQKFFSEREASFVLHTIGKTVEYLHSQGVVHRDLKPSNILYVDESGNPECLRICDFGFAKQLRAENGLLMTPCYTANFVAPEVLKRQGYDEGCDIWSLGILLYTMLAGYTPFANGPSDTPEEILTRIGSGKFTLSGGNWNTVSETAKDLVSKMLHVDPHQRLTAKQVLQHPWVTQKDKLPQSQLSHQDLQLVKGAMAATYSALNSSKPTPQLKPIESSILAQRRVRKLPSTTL
Effect on: enzyme activity
Mode: inhibitor
Tested at: 0.5 µM
Baseline: control
Measurement: remaining activity
Compound = COc1cc2ncnc(N3CCN(C(=O)Nc4ccc(Oc5ccccc5)cc4)CC3)c2cc1OC; value = 82%
Compound = Cc1nc(Nc2ncc(C(=O)Nc3c(C)cccc3Cl)s2)cc(N2CCN(CCO)CC2)n1; value = 96.2%
Compound = O=c1cc(N2CCOCC2)oc2c1ccc1ccccc12; value = 92%
Compound = CCN1/C(=C/C(C)=O)Sc2ccc(OC)cc21; value = 94%
Compound = CCC(=O)Nc1ccc2ncnc(Nc3cccc(Br)c3)c2c1; value = 88.7%
Compound = COc1cc2ncc(-c3ccccc3)nc2cc1OC; value = 88.4%
Compound = CC(C)c1nn(-c2c(Cl)cccc2Cl)c2nc(Cc3ccc(OCCO)cc3)[nH]c(=O)c12; value = 91.3%
Compound = Cn1cnc2cc3c(Nc4cccc(Br)c4)ncnc3cc21; value = 103%
Compound = Cc1ccc(NC(=O)c2ccc(CN3CCN(C)CC3)cc2)cc1Nc1nccc(-c2cccnc2)n1; value = 101%
Compound = COc1ccc(Cl)cc1NC(=O)Nc1cc(C)nc2ccccc12; value = 77.8%
Compound = COc1cc2ncnc(Nc3ccc(OCc4ccccc4)cc3)c2cc1OC; value = 90.2%
Compound = CCOc1cc2ncnc(Nc3cccc(Br)c3)c2cc1OCC; value = 82.8%
Compound = CC(=O)O/N=C1/C(c2c(O)[nH]c3cc(Br)ccc23)=Nc2ccccc21; value = 69%
Compound = CS(=O)(=O)CCNCc1ccc(-c2ccc3ncnc(Nc4ccc(OCc5cccc(F)c5)c(Cl)c4)c3c2)o1; value = 105%
Compound = CC(C)[C@H](CO)Nc1nc(Nc2cccc(Cl)c2)c2ncn(C(C)C)c2n1; value = 77.3%
Compound = Cn1cc(/C=C2\C(=O)Nc3ccc(S(N)(=O)=O)cc32)c2ccccc21; value = 12.7%
Compound = O=C1NC(=O)/C(=C/c2ccc3nccnc3c2)S1; value = 80.7%
Compound = CN(C)CCCn1cc(C2=C(c3c[nH]c4ccccc34)C(=O)NC2=O)c2ccccc21; value = 4.67%
Compound = COc1ccc(-c2cnc3c(-c4ccsc4)cnn3c2)cc1; value = 85.7%
Compound = Nc1[nH]nc2nnc(-c3c(-c4ccccc4)nn4ccccc34)cc12; value = 95.1%
Compound = O=C(Nc1ccc(Cl)cc1)c1ccccc1NCc1ccncc1; value = 92%
